Measurements collected from several papers.
A part holds a random share of what one study measured.

Series 1 — method: protein-binding microarray; form: double-stranded DNA, one strand shown; medium: in vitro; concentration: 0.8 µM; setting: whole 60-bp probe, no competitor; reading: higher = stronger binding; constant ends, left off below: … GTCTTGATTCGCTTGACGCTGCTG
Target: Centromere-binding protein 1, full length, N-terminal tag (CBF1, Saccharomyces cerevisiae, UniProt P17106, residues 1-351)
UniProt P17106, sequence (whole entry, looked up): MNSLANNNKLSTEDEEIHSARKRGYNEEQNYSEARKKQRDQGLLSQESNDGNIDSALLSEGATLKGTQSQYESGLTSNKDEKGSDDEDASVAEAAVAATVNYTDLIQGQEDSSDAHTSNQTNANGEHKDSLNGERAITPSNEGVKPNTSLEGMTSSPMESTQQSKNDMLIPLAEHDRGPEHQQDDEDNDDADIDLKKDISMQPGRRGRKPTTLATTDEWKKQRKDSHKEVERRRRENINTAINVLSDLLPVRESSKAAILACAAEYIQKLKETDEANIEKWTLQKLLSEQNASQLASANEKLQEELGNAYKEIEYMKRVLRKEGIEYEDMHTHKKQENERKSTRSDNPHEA
Strand | fluorescence intensity
GAAGATCTTTTCCATCACGCTAACACATGATAATAG | 1210 a.u.
GAAACTGAAACGGCTCACGAGTCTAGTGAGCCCTAG | 558 a.u.
CTATAACGGAGCCGTGACGAGAGTGGCTGTGATTTC | 594 a.u.
CTACTACTCATCGGTGACGGCTTTTCTCACTTTTTC | 520 a.u.
GAATTGGGTATTCATCATGCGCTGCTGTGGGTATAG | 520 a.u.
GAAATCAATACAAGGTGACTAAGATTGTTATGTTAG | 562 a.u.
TGTACGAAGCTATGAGGCATGATTATAGTAGTTAGG | 546 a.u.
GAACCTCCGCACCCGCACGTGACTACACCGGGTTAG | 18600 a.u.
CCTAACTACTATACACGCATGGAATAGCTTCGTACA | 541 a.u.
GAACAGGATCTTTAAAAGGTGATGAAAGATGCATAG | 544 a.u.
GAAGGAAAGCAAAGGAACGTGTTTTAATTGATGTAG | 591 a.u.
GAAAGGTCCATCGGAAAGGTGACTCTTTTAAATTAG | 518 a.u.
GAAATTATATACAAGAACGTGGTAGAGACTGGATAG | 631 a.u.
GAAATCCCCTTGATGCACGTGCAGTTAAAAAAATAG | 11700 a.u.
CTATATTTAATGCGTCACCTGCCTATTCAATAATTC | 1770 a.u.
GAAGGGGCTTTCGAACGTGTGATAGAAAACTGCTAG | 617 a.u.
CTACCCTGGTACCACCACCTAATATCTGGCTTTTTC | 513 a.u.
CTAATTTTTCAATATTTCACCTGTTTATCGGTGTTC | 497 a.u.
CTAAGGGCCTTCGTTCTCATCACCATTATTGGCTTC | 464 a.u.

Series 2 — method: protein binding microarray; form: double-stranded DNA, one strand shown; medium: in vitro; concentration: not given; reference: not given; reading: higher = stronger binding
Target: Histone acetyltransferase KAT6A, winged helix 1, GST fusion (KAT6A, Homo sapiens, UniProt Q92794, residues 1-85)
Setting: 8-mer, flanks averaged, mean of 2 arrays, mostly near background
Construct (chain): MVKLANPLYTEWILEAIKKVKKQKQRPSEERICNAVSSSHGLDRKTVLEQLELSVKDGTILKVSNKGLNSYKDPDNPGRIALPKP
Strand | E-score
AGAACGCC | -0.0104
GCGGAAAC | 0.223
ACGCCTTC | 0.0328
CTTATTGC | -0.0779
GCTTCTGA | 0.0684
CACTAGTC | -0.11
CAAACCGC | 0.167
AACAGCGC | 0.33
CCCCCCTC | -0.292
TAACTGAA | -0.204
CATCCTCG | 0.121
ACCTACCC | -0.0298
ACCTGTCA | -0.136
CATACCCC | -0.0193
CAGCTGTC | -0.176
ACGGGCCT | 0.339
AAAATCAT | -0.175
AAACTAAT | -0.0407
CGTGCCAG | -0.0687
AGGCTTCG | 0.0681
ACACCAAG | -0.114
TATTTTGA | -0.278
CAGGGTTC | -0.122
CCTAGGCC | -0.1
CGCTCAGA | 0.0977

Series 3 — method: RNA Bind-n-Seq; form: RNA; medium: in vitro; concentration: not given; reference: input RNA pool; reading: higher = stronger binding
Target: RING finger protein unkempt homolog, zinc fingers 1-6, GST-SBP tag (UNK, Homo sapiens, UniProt Q9C0B0, residues 30-357)
Setting: RNA with constant flanks, human and mouse sites, ends assumed
Constant ends, left off below: GGGAGUUCUACAGUCCGACGAUC … CAACAGAGGAUUGAGCAUCA
Residues (chain): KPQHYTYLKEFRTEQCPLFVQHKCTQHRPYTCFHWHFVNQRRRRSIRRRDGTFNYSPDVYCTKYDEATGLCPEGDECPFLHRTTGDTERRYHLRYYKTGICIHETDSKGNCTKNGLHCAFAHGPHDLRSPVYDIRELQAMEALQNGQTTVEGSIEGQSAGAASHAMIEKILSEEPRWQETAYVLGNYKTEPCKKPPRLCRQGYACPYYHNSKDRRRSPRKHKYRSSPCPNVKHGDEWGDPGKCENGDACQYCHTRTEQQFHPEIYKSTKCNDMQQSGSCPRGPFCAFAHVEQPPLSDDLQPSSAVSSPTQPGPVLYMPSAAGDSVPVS
Strand | bound/input enrichment [ratio]
GAAGCAGACAAUGAUAAUUAUGAAGUUUUAUUCAAUUUGGAGGAACUUAAGUUAGACCAGCCCUUCAUUGAUUGUAUCAGAGUUGCUCCAGAUGAAAAAUAUGUGGCUGCCAAGAUAAGA | 0.333
CUUGGACAGGAGAAGGCACUUGAACAGAUACUGGAAUAUGAACUACUUCUUAUACAGCAACUUAAUUUCCACCUUAUUGUCCACAAUCCUUACAGACCAUUUGAGGGCUUCCUCAUCGAC | 0.11
ACAAAAAAAAUCAAAAAUUAAAAAAAAUCAAUGCGGUCUCUUUGCAGAAUGUUUUGCUUGAUGUUUAAAAAAUACCUUGGAUCUUAUUUUGUAAAUACUUACAUUUUUGUUAAAAAAUAC | 0.414
GCCUGUGAGAAUUACAAGAAGAUCAAGUCCCCCAUCAAAAUGGCGGAGAAGGCAAAGCAAAUUUAUGAAGAAUUCAUCCAGACAGAGGCCCCUAAAGAGGUGAACAUUGACCACUUCACU | 0.283
AUUAAUGAGGGCCUUAAAGCUGCUGACAACGACCCCACGGCGCCACCGUAUGACUCCCUCUUAGUCUUUGACUACGAGGGCAGCGGCUCCACGGCUGGCUCCUUGAGCUCCCUCAACUCC | 0.128
AGCAUGCUGCAGCGCAAGAUUGCAGAGCUGGAAGAGGAGCGGUCCCAGGGGUCCACCAGCAACAGUGACUGGAUGAAAAACCUCAUCUCCCCUGACCUGGGGGUUGUGUUUCUCAACGUA | 0.123
UUUGGUUUAGUUUGGUUUUAUUUUCUUUAACUGAAAUGCAUGCACAAAAGGAGCUCAGGAGACAUUAGACCUGGUGAAAGGUGUGAGCUGACGUGGAUCACUUGAGGCUGUCAUUGCUGU | 1.09
UCAGAUGAACAAGAAGAUGAAGAUGCCAUCGUCAACAGGAUUUCGUUGUUUUUGAGCACGUUCACUCUCGCAGUGUCAGCUGGGGCUGUUUUGCUUUUACCCUUCUCAAUCAUCAGCAAU | 0.0692

Series 4 — method: RNA Bind-n-Seq; form: RNA; medium: in vitro; concentration: 200 nM; setting: whole 134-nt RNA, ends assumed; together with: 150 mM LiCl; reference: input library; reading: higher = stronger binding; library: 7-deaza-guanosine replaces G
Target: Fragile X messenger ribonucleoprotein 1, C-terminal low-complexity region (Fmr1, Mus musculus, UniProt P35922)
Constant ends, left off below: GGGAGUUCUACAGUCCGACGAUC … UGGAAUUCUCGGGUGUCAAGG
Strand | log2 enrichment
ACCAUGCAGGUGGGCAUCUUUGGGAAGUGGGGCAAGGGGGGGAUAGGGAGGGGGGUAACACUAUGGGAACAGGUGGUCCCAGGUCGUUUC | 1.66
UGCCUACGUAAUUUUUUAUCUUGAAAUAUUCAAAAUUAGGAGCCAGAUGACCAAGAUGCUCCAGAUGAACAUGAGUCGCCUCCACCUGAA | -0.413
UGCUGAAGCUCACACCCGUGGACCACCCAGACUGCCUGCCGCUACAGGAUGCCCUCCGCAUCUCCCAGGACUUCUUUCCGGCAUCAGUGU | -0.814
ACCAUGCAGGUGGGCAUCUUUGGGAAGUGGGGCAAGGGGGGGAUAGGGAGGGGGGUAACACUCUGGGAACAGGUGGUCCCAGGUCGUUUC | 1.34
UCAAGUCCUGUGCUACACAUCGUAUGUACCGAAUCGGGGUUUGGUUUGGUUUGGGAAAGUAUUAUGUUACGCCGUUCGGAUCUGCACUUC | -1.68
UCCCUGUCCAAGCUGAGCGCCCUCAACGAGAGCCUUGCUCAGGACAAGUUGGAUCUGAACUGCCUUGUCACCCAGGUACACUGUGCACCU | -0.423
ACCAUGCAGGUGGGCAUCUUUGGGAAGUGGGGCAAGGGGGGGAUAGGGAGGGGGGUAAAAAUUUGGGAACAGGUGGUCCCAGGUCGUUUC | 1.61
UGGGAGGUGGAUUUUGUUUAUUUUUUUAGCUCAUUUCCAGGGGUGGGAAUUUUUUUUUAAUAUGUGUCAUGAAUAACGUUGUUUUUGAAA | 0.344
